Assay results collected from several papers.
Numbered parts are unrelated; each lists some results of a single study. Changes are numbered by the printed parent chain.

Set 1 — target: CCND3, cyclin fold, Cln2 fusion (human); method: yeast growth competition, sequencing; medium: yeast; setting: strong parent motif; baseline: not given; reading: higher = stronger binding
Starting sequence: INSM1 docking peptide (human); PKAIRKLHFEDEV; partner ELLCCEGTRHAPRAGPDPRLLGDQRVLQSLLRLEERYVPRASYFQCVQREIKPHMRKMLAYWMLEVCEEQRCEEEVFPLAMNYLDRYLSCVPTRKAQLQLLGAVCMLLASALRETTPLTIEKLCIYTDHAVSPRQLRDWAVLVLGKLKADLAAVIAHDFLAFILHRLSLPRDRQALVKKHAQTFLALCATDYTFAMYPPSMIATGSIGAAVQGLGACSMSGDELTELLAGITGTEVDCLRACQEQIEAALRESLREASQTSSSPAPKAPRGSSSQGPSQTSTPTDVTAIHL
Substitution | normalised enrichment score
PKAIEKLHFEDEV [R5E] | 0.118
PKAIRHLHFEDEV [K6H] | 1.05
PKAIRKLHFEFEV [D11F] | 0.548
PKAIRKLHFEPEV [D11P] | 0.555
PKAIRKLHFEDLV [E12L] | 0.795
PKAIKKLHFEDEV [R5K] | 0.477
PKAIRTLHFEDEV [K6T] | 0.974
PKAIRKCHFEDEV [L7C] | 0.218
PKAIIKLHFEDEV [R5I] | 0.00777
PKAIRKLHFEDQV [E12Q] | 0.555
PKAIRKLHFEDAV [E12A] | 1.07
PKAIRKLMFEDEV [H8M] | 1.06
PKAIRKVHFEDEV [L7V] | 0.613
PKAIRKLHIEDEV [F9I] | 0.0175
PKAIQKLHFEDEV [R5Q] | 0.35
PAAIRKLHFEDEV [K2A] | 0.669
PKAIAKLHFEDEV [R5A] | 0.0699
PKAIRKNHFEDEV [L7N] | 0.177
PKAIRMLHFEDEV [K6M] | 0.882
PKAIRKLHFEDNV [E12N] | 0.92
PKAIRKLHFEDVV [E12V] | 0.558
PKAIRKLHCEDEV [F9C] | 0.121
PKAIRKLHFEYEV [D11Y] | 0.208
PKAIRKSHFEDEV [L7S] | 0.342
PKAIRSLHFEDEV [K6S] | 0.59

Set 2 — target: TEF, bZIP domain (human); method: DHFR protein complementation; medium: yeast; baseline: wild-type JUN-FOS pair; reading: higher = stronger binding
Setting: single substitutions, most at no-binding floor
Starting sequence: JUN, bZIP domain (human); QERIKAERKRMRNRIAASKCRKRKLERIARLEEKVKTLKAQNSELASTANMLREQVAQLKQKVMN; partner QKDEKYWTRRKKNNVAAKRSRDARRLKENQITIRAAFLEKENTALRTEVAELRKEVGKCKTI
Substitution | binding fitness [natural log]
K36M | -1.52
E54I | -1.33
A46C | -1.43
V35T | -1.52
K34P | -1.48
A40P | -1.41
L31I | -1.49
K36H | -1.46
R53K | -1.23
T37L | -1.43
K39H | -1.54
E33L | -1.38
A49E | -1.51
E32V | -1.4
A49H | -1.62
E33R | -1.47
A49S | -1.41
V35G | -1.42

Set 3 — method: RNA Bind-n-Seq; molecule type: RNA; medium: in vitro; tested at: 100 nM; baseline: input RNA pool; reading: higher = stronger binding
Target: RING finger protein unkempt homolog, zinc fingers 1-6, SBP tag (UNK, Homo sapiens, UniProt Q9C0B0, residues 30-357)
Sequence of UniProt Q9C0B0 (30-357, looked up): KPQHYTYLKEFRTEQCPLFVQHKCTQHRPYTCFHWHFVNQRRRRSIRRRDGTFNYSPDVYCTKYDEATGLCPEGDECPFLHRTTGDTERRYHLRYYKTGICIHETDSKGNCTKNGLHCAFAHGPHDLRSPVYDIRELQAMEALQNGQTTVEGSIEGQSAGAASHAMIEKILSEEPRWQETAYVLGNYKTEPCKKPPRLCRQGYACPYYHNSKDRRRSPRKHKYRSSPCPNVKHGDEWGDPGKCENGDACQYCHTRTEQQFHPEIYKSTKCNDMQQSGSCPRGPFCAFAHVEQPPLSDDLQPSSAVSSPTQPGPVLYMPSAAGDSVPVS
Setting: RNA with constant flanks, vertebrate orthologous sites, ends assumed
Constant ends, left off below: GGGAGUUCUACAGUCCGACGAUC … CAACAGAGGAUUGAGCAUCA
Sequence | bound/input enrichment [ratio]
ACAGUAUGGGUUACUCUCAUUUCUGUAGCAGAUAGAACAUUUUGCAAAAUAUGUAUACACCUAGCUAAGCUGAAUAUAAUAUAUUUUUAUUAGACUGUAAAUAAACAUACUCUUCUGCAU | 0.414
UAUCUUUAGGAUGAAGCUCUUACACCAAGUGUCACGAGUCUGGAGAACAGACGGGUUGAGUAGUUGUUCUUAUAAAUUAGUAUCCGUGGAACACAAUCCUUUGUAUGUCAACAUCACAGU | 0.542
UUUUAUUGAUCAGGUCUGUAAAUGUGUACUAAAAAAAUCAGAGUUUAUUUAUAAACAAAAUAGUUUAUUUAAAGAGAAGGUCUCUUCCUUAUUGAUAUCAUGGUAUGCAUUAAUUCCAUU | 0.248
GUAUCUUGGUUUGGGGUAGAGGGGAGGGAGGGGCAGGACUGUGGAAUCUCUCCGGUAUAUGGGUAGAUAAGUGGACCUAUGUUAACCUCUGGGGCAUCUGUUUUGGGGGUGAGUAUGGGU | 0.478
UAUUGUACGUAGAGAAAAAAUUUUCCUUGACCCCAUUGUGAAAUUCCCUAGCAAUUUAUUUAGAAUCUUCAUUUUUCUCGUUCAAGCUCACUGUAUUAGUUAUUUUUAGCCCAUAAUUAA | 5.51
UUGGGGUGUACCUGUGGGUGCUGCUGGCCACGUAGCGUUGUUUGAUCUAGGACCUUGACAUAAUAGAUAGGCUUGUGGUUUUUUAAUUUAAAGAUAUUAAGACUUAAUUCACUAAAAUUU | 0.726
GGUCAUUUAUAGCAAUUAGAGUGGGUUGCCCCUCUACUUCUCCCAAGAAGAAAUCCCAAAUAGCUUCCUUUCAUGUCAGAUUAUACUGUUCUGAUUUUAUUUUCUAUUAUUUUUACAUAU | 3.4
AGACUUUCUGUGUGCCAGAUUACCCCAAAAAACAUAAAGCUACUUUUUUACUUGCAUAUUUUUCAAAGUACCUGAAAAUGGUUUUUCUCCUUUCUAAUGGUCAAAAGAAGGUACAUUUCC | 0.501
CCUGUAUGUAGAAAACAAUUCUCACUGAAGCCAUUGUCAAGUUUUUCCCCCUAGACCUGGACUGGAGAUGUUUAAUUUUAUACACGCUUGCUGUGUUGGUCAUCGGUAGCCGGAGUUCAA | 0.251
CUUACUUAGAGGGAAAUAUAUGUUUCAUAAGGAAGAGUCUUUAUAAUUUUGUUUGUCAGAUAGUAUUUUGGAAUUUGUAUGAGGAUGUUUAGAAGCCUUAUAAAUGGCUUUUUUUUAACA | 0.764
CAUGUCCUUGUUACUGUGAUAUUUAAAAUAUCCACAGUAUUCACCUUUUUCAAAUGAUUCUAGUAAAAUCUUUCUCUUAUCUGUUAUUUAUCAAUUUUUCCCAGUAUUUUUAUAUGGAAA | 1.96

Set 4 — method: DHFR PCA, dose-response; medium: yeast; setting: Hill fit, mean, not affinity; with: (+)-ABA, dose series; reading: lower = more sensitive
Target: ABI1, truncated, D143A, DHFR fusion (Arabidopsis thaliana, UniProt P49597)
Starting sequence: PYL1, truncated, DHFR fusion (Arabidopsis thaliana, UniProt Q8VZS8); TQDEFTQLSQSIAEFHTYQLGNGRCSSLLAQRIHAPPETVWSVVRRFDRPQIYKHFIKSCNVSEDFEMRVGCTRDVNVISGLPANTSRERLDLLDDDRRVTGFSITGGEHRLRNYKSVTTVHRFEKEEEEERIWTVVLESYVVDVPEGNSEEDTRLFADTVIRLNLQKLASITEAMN
Substitution | ABA EC50 [µM]
E174V | 14.9
E38G | 11.1
Q167E | 11.3
T17C | 8.89
I79P | 171
V62W | 49.6
L8P | 133
T17L | 23.7
F103W | 82.2
F124C | 2.82
R24A | 6.45
R155T | 2.85
S63G | 1.89
R69V | 1.89
R111D | 193
E151V | 2.98
T17F | 31.4
L94H | 6.28
R69F | 8.41
I12H | 76.8
D159H | 116
L94K | 583
V100C | 9.22
P83S | 79.4
Q7I | 2.7

Set 5 — method: protein-binding microarray; molecule type: double-stranded DNA, one strand shown; medium: in vitro; tested at: 2200 nM top; setting: 60-bp whole probe; with: salmon DNA 0.4 mg/ml; baseline: random background probes; reading: higher = stronger binding; constant ends, left off below: GCCTAGCAC … GTCTTGATTCGCTTGACGCTGCTG
Target: Interferon regulatory factor 7, full length, phosphomimetic (IRF7, Homo sapiens, UniProt Q92985, residues 1-503, S471D/S472D/S475D/S476D/S477D/S483D/S484D/S487D)
Sequence of UniProt Q92985 (whole entry, unmodified, looked up): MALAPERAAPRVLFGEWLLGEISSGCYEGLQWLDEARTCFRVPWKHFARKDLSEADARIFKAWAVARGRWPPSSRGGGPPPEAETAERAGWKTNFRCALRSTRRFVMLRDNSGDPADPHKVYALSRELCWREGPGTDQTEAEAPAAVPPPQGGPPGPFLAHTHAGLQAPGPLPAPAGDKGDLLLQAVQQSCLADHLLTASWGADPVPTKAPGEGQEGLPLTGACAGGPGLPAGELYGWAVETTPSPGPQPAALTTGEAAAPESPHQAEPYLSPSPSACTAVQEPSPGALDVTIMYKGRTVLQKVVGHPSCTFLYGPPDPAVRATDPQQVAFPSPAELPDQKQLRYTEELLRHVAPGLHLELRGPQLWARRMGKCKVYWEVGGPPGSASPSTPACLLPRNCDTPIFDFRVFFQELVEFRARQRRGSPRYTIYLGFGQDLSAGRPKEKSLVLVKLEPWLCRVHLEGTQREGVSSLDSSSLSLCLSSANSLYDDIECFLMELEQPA
Sequence | fitted relative affinity [z-score]
GACGGTATCCTTCTCCTGTCGTGCTAG | 1.72
TTAGGTTTCCTTTCCCTTCAGTGCTAG | 4.83
TTAGATTTCAGTTTCGCTTAGTGCTAG | 7.43
TGAGGTTTCGACACTGGGTTAGTGCTA | 1.85
GACGGACTTGACACTGGGGACGTGCTA | -0.513
TTAGGTATCGGGTCTCGGTTAGTGCTA | 0.941
TTAGATAGCAGTCTCGATTAGTGCTAG | -0.306
GACGGACTGGGGTATCGGGAAGTGCTA | -0.882
AAGTAAAATGCAAAGAGGAAGTGCTAG | -0.951
TTAGATATCAGACTGGGTTAGTGCTAG | -0.255
GCCGATCTCAGTCTCGAGACGTGCTAG | 0.723
TTAGATCTCAGTTTCCATTAGTGCTAG | 2.27
TTAGATTTCAGTATCGACTAGTGCTAG | 0.977
GACGATCTCAGTTCCGAGACGTGCTAG | 0.598
GACGGTGTCGACACTGGGGACGTGCTA | -0.356
CACTCTCTACATGTGTTTAAGTGCTAG | 1.49

Set 6 — method: RNA Bind-n-Seq; molecule type: RNA; medium: in vitro; tested at: 200 nM; setting: whole 134-nt RNA, ends assumed; with: 150 mM KCl; baseline: input library; reading: higher = stronger binding
Target: Ras GTPase-activating protein-binding protein 1, full length (G3BP1, Homo sapiens, UniProt Q13283)
Sequence of UniProt Q13283 (whole entry, looked up): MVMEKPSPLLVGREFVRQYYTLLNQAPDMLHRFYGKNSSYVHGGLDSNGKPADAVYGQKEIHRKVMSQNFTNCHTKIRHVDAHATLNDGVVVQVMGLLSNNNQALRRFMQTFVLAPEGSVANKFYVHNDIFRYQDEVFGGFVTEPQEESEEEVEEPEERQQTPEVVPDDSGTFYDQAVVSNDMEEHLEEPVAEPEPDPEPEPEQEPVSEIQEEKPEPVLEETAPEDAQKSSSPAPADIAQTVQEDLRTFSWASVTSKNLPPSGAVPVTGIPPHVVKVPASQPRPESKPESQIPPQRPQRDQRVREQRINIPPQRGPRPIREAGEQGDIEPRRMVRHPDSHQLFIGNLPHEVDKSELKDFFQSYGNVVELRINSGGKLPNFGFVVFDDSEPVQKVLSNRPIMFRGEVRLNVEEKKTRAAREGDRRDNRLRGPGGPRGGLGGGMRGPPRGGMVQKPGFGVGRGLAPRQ
Constant ends, left off below: GGGAGUUCUACAGUCCGACGAUC … UGGAAUUCUCGGGUGUCAAGG
Sequence | log2 enrichment
CUCAAGUCCUGUGCUACACAUCGUAUGUACCGAAUCGGAAAGGUUUUUGGUGGAAAGUAUUAUGUUACGCCGUUCGGAUCUGCACUUCCA | -0.651
UAACUUUAGAGGAGGAUCUGAUGGAUAUGGCAGUGGACGUGGAUUUGGGGAUGGCUAUAAUGGGUAAGGAGGAGGACCUGGAGGUGGCAA | 0.414
CACAGACAACACGCACCCACACAGACACAGAGGGAAGGGGUUGGGAUGGGGACAGGGUGCACAGCAGGCCGGGGUAGGACCCCAGCCCCU | 1.93
CCUGUGCUACACAUCGUAUGUACCGAAUCGGGGUUUGGGGUUUUUUUGGGGAAAAAGGGGAAAGUAUUAUGUUACGCCGUUCGGAUCUGC | 0.22
GUCCUGUGCUACACAUCGUAUGUACCGAAUCGGGGAAAAAGGGGAAAAAGGAAAAAGGAAAGUAUUAUGUUACGCCGUUCGGAUCUGCAC | -0.403
UGGCCCUGGUGGCAUGCGGGGAGGAAGAGGUGGCCUCAUGGAUCGUGGUGGUCCCGGUGGAAUGUUCAGAGGUGGCCGUGGUGGAGACCG | 0.122
CUGUGCUACACAUCGUAUGUACCGAAUCGGGGAAAAAAAGGGGAAAAAAAGGGAAAAAAAGGAAAGUAUUAUGUUACGCCGUUCGGAUCU | -0.59
UUCCGGAAGAAGAAGCUCCGAUUUGGCCGGAGCCGGAUCCACGAGUGGGGUCUGUUUGCCAUGGAACCCAUUGCUGCUGACGAGAUGGUC | -1.17
UCCUGUGCUACACAUCGUAUGUACCGAAUCGGGCCCCCCGGCCCCCCGGCCCCCCGGGGAAAGUAUUAUGUUACGCCGUUCGGAUCUGCA | -0.133
AGUCCUGUGCUACACAUCGUAUGUACCGAAUCGGUUUGGUUUUUUUGGUUUUUUUGGAAAGUAUUAUGUUACGCCGUUCGGAUCUGCACU | -1.31
UCCUGUGCUACACAUCGUAUGUACCGAAUCGGGGCCCCCCGGGCCCCCCGGGCCCCCCGGAAAGUAUUAUGUUACGCCGUUCGGAUCUGC | -0.16
CCUCAAGUCCUGUGCUACACAUCGUAUGUACCGAAUCGGAAGGGAAGGAAGGGAAAGUAUUAUGUUACGCCGUUCGGAUCUGCACUUCCA | -0.658
CACAGACAACACGCACCCACACAGACACAGAGGGAAGGGGUUGGGAUGGGGACAGGGUGCACAGCAGGGCGGGGUAGGAAACCAGCCCCU | 1.71
CACAGACAACACAAACCCACACAGACACAGAGGGAAGGGGUUGGGAUGGGGACAGGGUGCACAGCAGGGCGGGGUAGGACCCCAGCCCCU | 1.92
